Published values collected from several papers.
Numbered parts are unrelated; each lists some results of a single study. Substitutions count along the parent as printed.

Study 1
Target: CCNA1, cyclin fold, Cln2 fusion (human)
Method: yeast growth competition, sequencing
Sample: yeast
Notes: weak parent motif
Reference: not given
Reading: higher = stronger binding
Parent: SGO1 docking peptide (human); PLAKRALKYTDEK; partner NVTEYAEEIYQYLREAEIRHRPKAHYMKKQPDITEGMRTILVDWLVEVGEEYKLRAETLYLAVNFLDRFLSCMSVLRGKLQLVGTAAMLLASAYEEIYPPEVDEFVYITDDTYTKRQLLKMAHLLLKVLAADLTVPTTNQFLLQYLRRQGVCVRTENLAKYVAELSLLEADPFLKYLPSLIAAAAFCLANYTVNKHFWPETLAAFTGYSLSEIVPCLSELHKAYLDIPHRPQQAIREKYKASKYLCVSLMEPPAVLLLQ
Variant	normalised enrichment score
T10A	0.493
R5A	-0.0874
K8A	0.355
Y9A	0.262
P1A	0.382

Study 2
Target: Prothrombin, mature alpha-thrombin (F2, Homo sapiens, UniProt P00734)
Method: aptamer microarray, sandwich
Molecule type: DNA with 2'F-ANA
Sample: in vitro
Concentration: 200 nM
Notes: whole 15-mer aptamer, many near background
Added: Cy3 exosite-II aptamer, 400 nM
Reading: higher = stronger binding
Oligonucleotide: GGTTGGTGTGGTTGG
Modification	mean fluorescence intensity [a.u.]
2'F-ANA at 2 4 5 8 9 10 11 13 14	71.1
2'F-ANA at 3 5 6 9 10 12 14	66.7
2'F-ANA at 1 2 3 4 6 11 13	111
2'F-ANA at 1 2 5 6 7 10 12 13 14 15	48
2'F-ANA at 1 4 5 6 9 10 13 15	45.6
2'F-ANA at 2 3 4 6 7 13 14 15	284
2'F-ANA at 1 4 5 9 10 11	48.7
2'F-ANA at 2 4 6 8 12 13 14	111
2'F-ANA at 2 4 7 9 10 11 12 13	102
2'F-ANA at 1 5 6 9 10 13 14 15	51.7
2'F-ANA at 3 6 7 9 10 11 14	378
2'F-ANA at 3 5 6 7 8 9 11 13 14 15	50.5
2'F-ANA at 1 2 3 4 10 11	58.9

Study 3
Target: RING finger protein unkempt homolog, zinc fingers 1-6, SBP tag (UNK, Homo sapiens, UniProt Q9C0B0, residues 30-357)
UniProt Q9C0B0, sequence (30-357, looked up): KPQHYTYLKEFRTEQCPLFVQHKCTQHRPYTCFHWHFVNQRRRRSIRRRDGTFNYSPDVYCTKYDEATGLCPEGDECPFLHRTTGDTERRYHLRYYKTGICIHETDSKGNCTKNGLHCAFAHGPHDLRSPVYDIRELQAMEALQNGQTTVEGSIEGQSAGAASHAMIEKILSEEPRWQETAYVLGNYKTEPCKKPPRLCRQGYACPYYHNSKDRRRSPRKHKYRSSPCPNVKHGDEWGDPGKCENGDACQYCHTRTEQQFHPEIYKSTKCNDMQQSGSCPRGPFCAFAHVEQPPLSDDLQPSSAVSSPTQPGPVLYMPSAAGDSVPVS
Method: RNA Bind-n-Seq
Molecule type: RNA
Sample: in vitro
Concentration: 100 nM
Notes: RNA with constant flanks, vertebrate orthologous sites, ends assumed
Reference: input RNA pool
Reading: higher = stronger binding
Constant ends, left off below: GGGAGUUCUACAGUCCGACGAUC … CAACAGAGGAUUGAGCAUCA
Oligonucleotide	bound/input enrichment [ratio]
GUGAGGGUCUACUGACCACUCACUGUUACGUCUGGUAUCUGUAAACACUCUUUUUGUUCUUAGUCUUUUUCUUGUAUAAUUGAUGUUCUUUAAAAUUGUUAAUGUAUAACAGGGCUUAUG	2.55
UGAUGUGGACACAAUUGCCUACAAUAAUGAAACCGACAGGAUUUUUUUUAAAGGCAUAUUUAGGCAUUUUUCCCCAGGCAGAUCAUUCUGAGUGUGCGAGUGUGUGUGCACAUGUUACAA	0.388
CAUGCACAUGCCGCUGUCACCAAGAGCAAACAUGGUCUCCAAACUCUCCAAGUAGCCUUUUUAGUAUUCUCCCUCUCUUUCCUUCUGUUUCUCCAGUGCUUUAAAUGAUUAGAAGUCCUG	2.95
AGGGAUGGCCCCCAACCCCACCUCUGUUUAUUCUGUAAACUACAACCUAUAAAUAACCUUUAGCAUUCCUAUUGUAACAAAAUUAAUUUUUAUGAAAUAAAUUAUAUUUCCUAGUCUAAU	0.85
GGACCUCCUGAACUUCUGGCUUUUAAGUGUGGUUGUUUUAGAUCCUGGUGUUAUUUUCCUUAUAAUUUUCCCUCGUUUCCCGUCUUCUCCUCCCCUCUUCUCAAGAUUUGACUCAUGGAU	1.32
ACGCUUUGACAUCAAGUUGACAAUCAGCUCGUGACCUCAGCCACGAUGAGCACUCAAAUCGAGACAAAUAAAAUGUAGAGAGAAUAUAAGAGUUCAGAUAAACACCACUAGUCUUUGAAC	0.214
CUUUGGAAGACUGUAAAAACCUUUUGUUCAUAUUGGUAAUUAUGGACCGUGCCACCAAAACUGAGUUUGUGGCUUAUUACAUUAAGAUAAUUUUUGUUGGUUAUUUCAUAAGUACUUGCU	0.147
AGUGGAUGCAGCAUAGAAACAUCCAAGGUACUGACUGCGGCUUUAGAUACUUCAUUAGUGUGAAAGUCACAUUUCUCUAUGUGAGGAUACAUAUCUUUGAGUAAAUUACAUCUUCAACUU	0.592
GUGACUUUGGACGUCCGUUCCUGCUCUGUGGAGGCGUUGCUUCGUUCCGGGCCUUGCGGCAACUCGGUUUUUCCUUCCGCGCGGGAGACCUCUGCCACAACCAUGUUACGCCAGAUCAUC	0.466
CUCCCCGUUACCCCUAAAGUAGAACUUUUUAAAAUUAUGUCACCACCACUUCUAAAAAUUUAGCAAUAUUAGAAGAAAAUGCUCAUGAAGAAAGAAAUUUUGCUCAUUGUUUUGCAAACC	0.951
AUCCCUCAGUGACAGUAUGCCAUCUGUAGCGGAUUCCCACUCGAGUCACUUUUCCGAGUUCAGCUGCUCAGACUUAGAGAGCAUGAGAACAUCCUGUAGCCAUGGUUCCAGUGACUGUCA	0.642

Mixed results
Substance	target	assay	test system	conditions	scale	endpoint	result
PhoQ, residues 284 288 289 292 302 303 ALVSVA	PhoP, residues 12 14 15 18 19 VQGLL (Escherichia coli, UniProt P23836)	Sort-seq, measured: YFP reporter	E. coli	PhoQ-PhoP variant library, added: 10 µM Mg2+	reference: high Mg2+ state, higher = stronger signaling	fold induction	19.3

Repeated from above (study 3):
Oligonucleotide	bound/input enrichment [ratio]
CAUGCACAUGCCGCUGUCACCAAGAGCAAACAUGGUCUCCAAACUCUCCAAGUAGCCUUUUUAGUAUUCUCCCUCUCUUUCCUUCUGUUUCUCCAGUGCUUUAAAUGAUUAGAAGUCCUG	2.95
AGGGAUGGCCCCCAACCCCACCUCUGUUUAUUCUGUAAACUACAACCUAUAAAUAACCUUUAGCAUUCCUAUUGUAACAAAAUUAAUUUUUAUGAAAUAAAUUAUAUUUCCUAGUCUAAU	0.85
GGACCUCCUGAACUUCUGGCUUUUAAGUGUGGUUGUUUUAGAUCCUGGUGUUAUUUUCCUUAUAAUUUUCCCUCGUUUCCCGUCUUCUCCUCCCCUCUUCUCAAGAUUUGACUCAUGGAU	1.32
ACGCUUUGACAUCAAGUUGACAAUCAGCUCGUGACCUCAGCCACGAUGAGCACUCAAAUCGAGACAAAUAAAAUGUAGAGAGAAUAUAAGAGUUCAGAUAAACACCACUAGUCUUUGAAC	0.214
CUUUGGAAGACUGUAAAAACCUUUUGUUCAUAUUGGUAAUUAUGGACCGUGCCACCAAAACUGAGUUUGUGGCUUAUUACAUUAAGAUAAUUUUUGUUGGUUAUUUCAUAAGUACUUGCU	0.147
